Experimental data collected from several papers.
Each line is one published result; not all experiments were run side by side. Several values in a cell are separate wells, animals, samples, runs or records. ± marks the error that the study gave.

CN1CCN(C2(CNC3CCN(c4cccc(-c5cc6cc(F)ccc6[nH]5)c4)CC3)CCC2)CC1
GI50 (U-251): 1720 nM

CC[C@H](C)[C@H](NC(=O)[C@H](CCCCN)NC(=O)[C@H](CCCCN)NC(=O)[C@@H](NC(=O)[C@@H](NC(=O)[C@H](CC(=O)O)NC(=O)[C@H](Cc1ccccc1)NC(=O)[C@H](CC(C)C)NC(=O)CN)[C@@H](C)CC)[C@@H](C)CC)C(=O)N[C@@H](C)C(=O)N[C@@H](CCC(=O)O)C(=O)N[C@@H](CO)C(=O)N[C@@H](Cc1ccccc1)C(=O)N[C@@H](CS)C(N)=O
EC50 (human red blood cells; pH 5.5; relative to: Triton X-100): 95 µM

Oc1ccc(C2(c3ccc(O)cc3)c3ccccc3-c3ccccc32)cc1
G2 phase cells (HepG2 spheroids; Hoechst flow cytometry; 10 µM, 96 h): 16.5 ± 5.85%

Cn1nccc1Nc1nccc(-c2ccn([C@H](CO)c3ccc(Cl)c(F)c3)c(=O)c2)n1
PI-positive cells (HCT116; IncuCyte; concentration not given, 16 (unit not given)): 2.75 count and 4.42 count and 4 count

Cn1cc(C2=C(c3cn(C4CCN(Cc5ccccn5)CC4)c4ccccc34)C(=O)NC2=O)c2ccccc21
cell index (iCell Cardiomyocytes (hiPSC-derived); cellular impedance; concentration not given, 24 h; relative to: control): 97.7%

c1ccc([C@@H]2C[C@H]2NC2CCNCC2)cc1
viability (HBL-1; 1 µM, 120 h): 114%

Nc1ncc(-c2nc(N3CCOCC3)nc(N3CCOCC3)n2)c(C(F)F)n1
GI50 (ASPC1; 72 h): 306 nM

CC(C)C[C@H](NC(=O)[C@H](CC(C)C)NC(=O)[C@H](CCCNC(=N)N)NC(=O)[C@H](Cc1c[nH]cn1)NC(=O)[C@H](CC(C)C)NC(=O)[C@H](CCCNC(=N)N)NC(=O)[C@H](CCCNC(=N)N)NC(=O)[C@H](Cc1c[nH]c2ccccc12)NC(=O)[C@H](CC(C)C)NC(=O)[C@H](CCCNC(=N)N)NC(=O)[C@H](Cc1c[nH]c2ccccc12)NC(=O)[C@H](CC(C)C)NC(=O)[C@H](CC(C)C)NC(=O)[C@H](Cc1c[nH]cn1)NC(=O)[C@H](Cc1c[nH]c2ccccc12)NC(=O)[C@H](CC(C)C)NC(=O)[C@@H](N)CCCNC(=N)N)C(=O)N[C@@H](CCCNC(=N)N)C(=O)N[C@@H](CS)C(N)=O
EC50 (human red blood cells; pH 5.5; relative to: Triton X-100): 6 µM

CCCCCCCCCCCCCC(=O)O[C@@H]1[C@@H](C)[C@@]2(O)[C@@H](C=C(CO)C[C@]3(O)C(=O)C(C)=C[C@@H]23)[C@@H]2C(C)(C)[C@]12OC(C)=O
sub-G0 cells (K562; flow cytometry; concentration not given; relative to: cells): 7.01% and 8.32% and 10.8%

C[C@@H]1O[C@@H](O[C@H]2C[C@@H](O)[C@]3(CO)[C@H]4[C@H](O)C[C@]5(C)[C@@H](C6=CC(=O)OC6)CC[C@]5(O)[C@@H]4CC[C@]3(O)C2)[C@H](O)[C@H](O)[C@H]1O
activity score (human iPSC-derived cardiomyocytes; MyBP-C/MYH ratio, plate-normalised SD score; concentration not given, primary screen; direction not given): 13.3

CC(C)=CCC/C(C)=C/CCn1cc(C2CC2(P(=O)([O-])[O-])P(=O)([O-])[O-])nn1.[Na+].[Na+].[Na+].[Na+] (centres unmarked)
inhibition of geranylgeranylation (MM.1S; item: unmodified Rap1a; concentration not given, 48 h): inactive

Cc1cnc2ccc3c(nc(N)n3C)c2n1
relative colony forming efficiency (BALB/c 3T3; 10 µM; relative to: solvent control): 97 ± 4%

O=c1cc(-c2ccccc2)oc2c(O)c(O)ccc12
neurite process number (induced SH-SY5Y Aβ-GFP cells; 5 µM): 3.5 to 3.6

CC(C)=CCCC1(C)C=Cc2c(O)c3c(c(CC=C(C)C)c2O1)OC12C(=CC4CC1C(C)(C)OC2(C/C=C(/C)C(=O)O)C4O)C3=O (centres unmarked)
activity score (human iPSC-derived cardiomyocytes; MyBP-C/MYH ratio, plate-normalised SD score; concentration not given, primary screen; direction not given): 5.3

CC[C@H](C)[C@H](NC(=O)[C@H](CCCCN)NC(=O)[C@H](CCCCN)NC(=O)[C@H](Cc1ccccc1)NC(=O)[C@H](CC(C)C)NC(=O)[C@H](CCCCN)NC(=O)[C@H](Cc1c[nH]c2ccccc12)NC(=O)[C@@H](N)CCCCN)C(=O)N[C@@H](Cc1ccccc1)C(=O)N[C@@H](CCCCN)C(=O)N[C@@H](CCCNC(=N)N)C(=O)N[C@H](C(=O)N[C@H](C(=O)N[C@@H](CCC(N)=O)C(=O)N[C@@H](CCCNC(=N)N)C(=O)N[C@H](C(=O)N[C@@H](CCCCN)C(=O)N[C@@H](CC(=O)O)C(=O)N[C@@H](Cc1ccccc1)C(=O)N[C@@H](CC(C)C)C(=O)N[C@@H](CCCNC(=N)N)C(=O)N[C@@H](CS)C(N)=O)[C@@H](C)CC)C(C)C)[C@@H](C)CC
EC50 (human red blood cells; pH 7.4; relative to: Triton X-100): 9 µM

CCN(CC)c1ccc(C=NNC(=O)CSc2nc3ccccc3c(=O)n2Cc2ccc(S(N)(=O)=O)cc2)c(O)c1
CC50 (UO-31; NCI five-dose screen): > 100 µM

COc1cc(CCC[P+](c2ccccc2)(c2ccccc2)c2ccccc2)c(OC)c2c1OCO2.[I-]
GI50 (HCC 2998; SRB): -5.66 log M

CCC(=O)CCCCC[C@@H]1NC(=O)[C@H]2CCCCN2C(=O)[C@H]([C@@H](C)CC)NC(=O)[C@H](Cc2cn(OC)c3ccccc23)NC1=O
viability (HBL-1; 0.5 µM, 120 h): 1.39%

CC1=C(O)C(=O)C=C2C1=CC=C1[C@@]2(C)CC[C@@]2(C)[C@@H]3C[C@](C)(C(=O)O)CC[C@]3(C)CC[C@]12C
optical density (HepG2; cell viability, CCK-8; 6 µM; higher = more viable cells): 0.17 a.u. and 0.168 a.u. and 0.184 a.u. and 0.186 a.u. and 0.173 a.u.

O=C1N(Cc2ccccc2Cl)c2ccccc2C12NN=C(c1ccccc1)S2 (centres unmarked)
fold change (MDA-MB-468; gene expression array, item: PIGY mRNA; 10 µM, 12 h; relative to: untreated, down): 1.64

C/C=C(/C)C(=O)O[C@H]1C(C)=C2[C@H]([C@@H]1OC(=O)CCCCCCC)[C@@](C)(OC(C)=O)C[C@H](OC(=O)CCC)[C@@]1(O)[C@H]2OC(=O)[C@@]1(C)O
normalized enrichment score (HEK-293T; RNA-seq GSEA, item: Hallmark estrogen response early; 500 nM, 6 h; direction not given): 1.32

Cc1cc(C(C)(C)c2ccc(O)c(C)c2)ccc1O
S phase cells (HepG2 spheroids; Hoechst flow cytometry; 0.1 µM, 24 h): 8.88 ± 1.79%

CS(=O)(=O)c1ccc(-c2nnc(/C=C/c3nnc(-c4ccc(C#N)cc4)o3)n2-c2ccccc2Cl)nc1
EC50 (Apc Q1405X mutant organoids; organoid area, live-cell imaging; mouse small intestinal organoids; 6 days, Tnks1 genotype Tnks1-/-): 0.0658 µM

Cc1ncsc1-c1ccc(CNC(=O)[C@@H]2C[C@@H](O)CN2C(=O)[C@@H](NC(=O)C2(F)CC2)C(C)(C)C)c(OCCOc2ccc(CN3CCN(c4cc(-c5ccccc5O)nnc4N)CC3)cc2)c1
sites with decreased accessibility (H1975 SMARCA4 wild type; ATAC-seq; 1 µM, 96 h): 43.6%

COc1ccc2c(c1)[nH]c1c(C)nccc12
methylation reduction (DU-145; bisulfite pyrosequencing, item: RASSF1A promoter CpG site 14; concentration not given; relative to: vehicle): 0%

Cl[C@H]1[C@H](Cl)[C@@H](Cl)[C@@H](Cl)[C@H](Cl)[C@H]1Cl
activity score (human iPSC-derived cardiomyocytes; MyBP-C/MYH ratio, plate-normalised SD score; concentration not given, primary screen; direction not given): 17

Oc1ccc(C(c2ccc(O)cc2)(C(F)(F)F)C(F)(F)F)cc1
S phase cells (HepG2 spheroids; Hoechst flow cytometry; 10 µM, 96 h): 8.15 ± 1.18%

CN[C@@H]1C[C@H]2O[C@@](C)([C@@H]1OC)n1c3ccccc3c3c4c(c5c6ccccc6n2c5c31)C(=O)NC4
GI50 (U2OS overexpressing wild-type DDR1; cell growth): 12 nM

COc1c(C)c2c(c(O)c1C/C=C(\C)CCC(=O)O)C(=O)OC2
IC50 (DLD-1; cell proliferation; colon cancer): 407 nM
